Results collected from several papers.
Protocols differ between the studies behind these lines. Several values in a cell are separate wells, animals, samples, runs or records. Numbers after ± are the reported error. Converted amounts (≈) assume the structure as drawn.

Compound	test	test system	conditions	scale	endpoint	result
COc1cccc(OC)c1-c1cc(C(=O)NC2(C(=O)O)C3CC4CC(C3)CC2C4)nn1-c1ccc(C(=O)N(C)CCCN(C)CCCN(C)C(=O)[C@H](CCCCNC(=O)[C@H](CC(C)C)NC(=O)C2OC2C(=O)O)NC(=O)CN2CCN(CC(=O)[O-])CCN(CC(=O)[O-])CCN(CC(=O)[O-])CC2)cc1C(C)C.[177Lu+3] (mixture of isomers)		mouse, HT-29 xenograft	168 h post injection, biodistribution	relative to: tumour over liver uptake	tumour-to-liver ratio	4.98
CC1(C)C(=CC=C2CCCC(C=CC3=[N+](CCC[N+](C)(C)C)c4ccc(S(=O)(=O)O)cc4C3(C)C)=C2SCCOCCOCCC(=O)O)N(CCC[N+](C)(C)C)c2ccc(S(=O)(=O)O)cc21		DMSO, PBS and FBS	across solvents tested		absorption maximum wavelength	778 to 806 nm
CC1(C)CC[C@]2(NC(=O)C(C)(F)F)CC[C@]3(C)[C@H](C(=O)C=C4[C@@]5(C)C=C(C#N)C(=O)C(C)(C)[C@@H]5CC[C@]43C)[C@@H]2C1		human, plasma	dose not given, added: gemfibrozil	relative to: without gemfibrozil	AUC	no effect
O=C(Nc1cnccc1-c1ccc([18F])nc1)c1ccnc(NC(=O)C2CC2)c1	PET imaging	FVB/NJ mice, both sexes, brain	intravenous, 10 min post-injection, P-gp inhibited, added: tariquidar 15 mg/kg iv, 2 h before		median SUV	0.268
CN1CCC[C@]1(C)/C=C/S(=O)(=O)NC(=O)Nc1c2c(cc3c1CCC3O)CCC2 (stereo partly shown)		human, plasma	oral, 100 mg twice daily of parent drug, day 14, metabolite of dosed drug		AUC(0-tau)	808 µg·h/mL
CC[C@H](C)[C@H](NC(=O)[C@H](CCCCN)NC(C)=O)C(=O)N[C@@H](C)C(=O)N[C@@H](C)C(=O)N[C@@H](CC(C)C)C(=O)N[C@@H](CCCCN)C(=O)N[C@@H](CCC(=O)O)C(=O)N[C@@H](CCCCN)C(=O)N[C@H](C(=O)N[C@H]1CSCc2cccc(c2)CSC[C@@H](C(=O)N[C@@H](CCCCN)C(=O)N[C@H](C(=O)N[C@@H](C)C(=O)N[C@@H](C)C(=O)N[C@@H](CC(C)C)C(=O)N[C@@H](CCCCN)C(=O)N[C@@H](CCC(=O)O)C(=O)NCC(=O)N[C@@H](Cc2c[nH]c3ccccc23)C(N)=O)[C@@H](C)CC)NC(=O)[C@H](CCCCN)NC(=O)[C@H](CC(C)C)NC(=O)[C@H](C)NC1=O)[C@@H](C)CC	circular dichroism thermal melting	PBS	pH 7.4, single peptide 50 µM total		melting temperature	20 °C
CC1(C)OCCc2cc(C(=O)N3CCC(c4nc(-c5ccccc5)n[nH]4)CC3)ccc21		CD-1 mouse liver microsomes	pH 7.4, added: NADPH		intrinsic clearance, scaled	2320 mL/min/kg
[2H]C1([2H])C[C@@H](C[C@@H](C#N)NC(=O)[C@@H]2[C@@H]3[C@H](CN2C(=O)[C@@H](NC(=O)C(F)(F)F)C(C)(C)C)C3(C)C)C(=O)N1		human liver microsomes	microsomes 0.5 mg/mL		intrinsic clearance	11.8 µL/min/mg
[123I]c1ccc2nc(-c3ccc(-n4ccnn4)nc3)cn2c1		male Wistar rat, bone	intravenous, 4 MBq, 3 h		tracer uptake	0.042 %ID/g
O=c1c2ccccc2[se]n1CCCCCCn1[se]c2ccccc2c1=O	shake-flask, RP-HPLC	isopropyl alcohol	24 h, 25 °C		solubility	980 ± 60 µg/mL (≈ 2050 µM)
CCCCN1C(=O)c2cccc3c(NCCN4CCOCC4)ccc(c23)C1=O		DMF			absorption maximum	438 nm
CCC1CNC(CC)CN(C(C(=O)[O-])c2ccc(C(=O)[O-])cc2)C(CC)CN(CC(=O)[O-])C(CC)CN1.[Mn+2] (stereo not shown)	ICP-MS	BALB/c mouse, kidney	intravenous, 0.05 mmol/kg, 5 min, without anaesthesia		Mn content	9.61 ± 2.48 µg/g
Cc1[nH]nc2c1N=C(c1ccccc1Cl)c1cnc(N3CCOCC3)cc1N2		male beagle dog, plasma	intravenous, 1 mg/kg		half-life	7.64 h
Cc1c(Cc2cccc(OC(C)(C)C(=O)O)c2)c2ccc(C(=O)N[C@@H](C)c3cccc(C(C)(C)C)c3)cc2n1CC1CC1	metabolic stability	mouse, liver microsomes			half-life	0.778 h
CC(C)[C@H](NC(=O)[C@H](Cc1c[nH]c2ccccc12)NC(=O)[C@H](CCCNC(=N)N)NC(=O)[C@H](CCCNC(=N)N)NC(=O)[C@@H](NC(=O)[C@@H](NC(=O)[C@H](CCCNC(=N)N)NC(=O)[C@@H](NC(=O)[C@@H](NC(=O)[C@H](CCCNC(=N)N)NC(=O)[C@H](CCCNC(=N)N)NC(=O)[C@@H](NC(=O)[C@H](Cc1c[nH]c2ccccc12)NC(=O)[C@H](CCCNC(=N)N)NC(=O)[C@H](CCCNC(=N)N)NC(=O)[C@@H](NC(=O)[C@H](CCCNC(=N)N)NC(=O)[C@H](CCCNC(=N)N)NC(=O)[C@@H](NC(=O)[C@H](Cc1c[nH]c2ccccc12)NC(=O)[C@H](CCCNC(=N)N)NC(=O)[C@@H](N)CCCNC(=N)N)C(C)C)C(C)C)C(C)C)C(C)C)C(C)C)C(C)C)C(C)C)C(=O)N[C@@H](CCCNC(=N)N)C(=O)N[C@@H](CCCNC(=N)N)C(=O)O	dipstick	CD-1 mice	intravenous, 15 mg/kg, 6-24 h		urinary protein	30 mg/dL
CC(C)(O)c1ncc([S@](N)(=O)=NC(=O)Nc2c3c(cc4c2CCC4)CCC3)s1	refers to: general, administration-site conditions	healthy human	oral, dose not given, all active doses pooled		subjects with TEAEs	17%
COc1cccc(OC)c1-c1cc(C(=O)NC2(C(=O)O)C3CC4CC(C3)CC2C4)nn1-c1ccc(C(=O)N(C)CCCN(C)C(=O)[C@H](CCCCNC(=O)[C@H](CC(C)C)NC(=O)C2OC2C(=O)O)NC(=O)CN2CCN(CC(=O)[O-])CCN(CC(=O)[O-])CCN(CC(=O)[O-])CC2)cc1C(C)C.[177Lu+3] (mixture of isomers)		mouse, HT-29 xenograft	24 h post injection, biodistribution	relative to: tumour over liver uptake	tumour-to-liver ratio	3.25
C=C(NC(=O)c1csc(-c2nc3c(cc2O)-c2nc(cs2)C(=O)NC(C(C)O)C(=O)NC(=C(C)OC)c2nc(cs2)C(=O)NC2c4nc(cs4)C(=O)NC(COC(=O)c4c5c6c(cccc6n4O)COC(=O)C(OC4CC(C)(O)C(N(C)C)C(C)O4)C2OC5)c2nc-3cs2)n1)C(N)=O (stereo not shown)		ICR mice, Streptococcus pneumoniae ATCC 49169 infected, immunocompromised, blood	intravenous, 2 mg/kg/day once daily		half-life	1.12 h
O=C(Nc1cnccc1-c1ccc([18F])cc1)c1ccnc(NC(=O)C2CC2)c1		FVB/NJ mice (both sexes), skin	intravenous, dose not given, 120 min		SUV	0.1

Compound	test	test system	conditions	scale	endpoint	result
N=C(N)NCCC[C@@H]1NC(=O)[C@H](CO)NC(=O)[C@@H](NC(=O)[C@H](CO)NC(=O)[C@H](CO)NC(=O)[C@H](Cc2c[nH]c3ccccc23)NC(=O)CNC(=O)[C@H](CO)NC(=O)[C@@H](N)Cc2c[nH]c3ccccc23)CSSC[C@@H](C(=O)NCC(=O)O)NC(=O)[C@H](CO)NC1=O		patients, plasma	intravenous, 5 mg/kg, thrice weekly, geometric mean		clearance	1280 L/h
CN1CCC[C@]1(C)/C=C/S(=O)(=O)NC(=O)Nc1c2c(cc3c1C(O)CC3)CCC2 (stereo partly shown)		human, plasma	oral, 12.5 mg twice daily of parent drug, metabolite of dosed drug	relative to: day 14 over day 1	AUC(0-tau) accumulation ratio	2.4
COC(=O)[C@@]1(C)C=C(C(=O)Nc2cccc(C(=O)Nc3ccc(Nc4nccc(-c5cccnc5)n4)c(C)c3)c2)C(=O)CC1		rat Wistar male, plasma	1 µM, 60 min		remaining compound	6.6% and 4.5%
CCCCCCCC(=O)[O][Pt]([Cl])([Cl])[O]C(=O)CCCCCCC.N.N	ICP-MS, refers to: platinum	nude mice, blood	intravenous, 1.95 mg/kg		elimination half-life	25.4 h
CC(=O)N([O-])CCCCCNC(=O)CCC(=O)N([O-])CCCCCNC(=O)CCC(=O)N([O-])CCCCCN.[89Zr+4]		human plasma	3 d, 37 °C		intact complex	97.8 ± 1%
CCCCN1C(=O)c2cccc3c(NCCCCCCCCN4CCOCC4)ccc(c23)C1=O		ethylene glycol			absorption maximum	448 nm
CC(C(=O)O)n1nc(Cn2cc3cc(OCC[18F])c(Cl)cc3n2)c2ccccc2c1=O (racemic)		rat, blood	30 min		tracer uptake	1.04 %ID/g
C=CC(=O)Nc1cc(Nc2nccc(-c3cn(C)c4ccccc34)n2)c(OC)cc1N(C)CCNC	storage stability	human dried blood spots	24 h, on ice, low QC level		recovery	74.2%
Cc1c(Cc2cc(F)cc(OC(C)(C)C(=O)O)c2)c2ccc(C(=O)N[C@@H](C)c3cccc(C(C)(C)C)c3)cc2n1CC(C)C	metabolic stability	mouse, liver microsomes			half-life	> 1 h
Cc1nc(N)nc2c1C(=O)N[C@@H](c1ccc(F)cc1-c1cccc(OCC[18F])n1)C2	ex vivo biodistribution	C57BL/6 mice, liver	intravenous, 1 MBq, 30 min		SUV	3.33 ± 0.17
CC(C)C[C@H](NC(=O)[C@H](CCCNC(=N)N)NC(=O)[C@H](Cc1ccccc1)NC(=O)[C@H](Cc1ccccc1)NC(=O)[C@@H](NC(=O)[C@H](CO)NC(=O)[C@H](CO)NC(=O)[C@H](CC(=O)O)NC(=O)[C@H](CO)NC(=O)[C@H](CO)NC(=O)[C@H](CC(=O)O)NC(=O)[C@H](CO)NC(=O)[C@H](CO)NC(=O)[C@H](CC(=O)O)NC(=O)[C@H](CO)NC(=O)[C@H](CO)NC(=O)[C@H](CC(=O)O)NC(=O)[C@H](CO)NC(=O)[C@H](CO)NC(=O)[C@H](CC(=O)O)NC(=O)[C@H](CO)NC(=O)[C@H](CO)NC(=O)[C@H](CC(=O)O)NC(=O)[C@H](CO)NC(=O)[C@H](CO)NC(=O)[C@H](CC(=O)O)NC(=O)[C@H](CO)NC(=O)[C@H](CO)NC(=O)[C@@H](N)CC(=O)O)[C@@H](C)O)C(=O)N[C@@H](Cc1ccccc1)C(=O)N[C@@H](CC(N)=O)C(=O)N[C@@H](CCCNC(=N)N)C(=O)N[C@@H](C)C(=O)N[C@@H](CCCCN)C(=O)N[C@@H](CCCNC(=N)N)C(=O)N[C@@H](Cc1c[nH]cn1)C(=O)N[C@@H](Cc1c[nH]cn1)C(=O)NCC(=O)N[C@@H](Cc1ccc(O)cc1)C(=O)N[C@@H](CCCCN)C(=O)N[C@@H](CCCNC(=N)N)C(=O)N[C@@H](CCCCN)C(=O)N[C@@H](Cc1ccccc1)C(=O)N[C@@H](Cc1c[nH]cn1)C(=O)O	HPLC-UV	human saliva	2 h, 37 °C, added: initial 1 mg/mL		peptide concentration	0.988 mg/mL
C/C(N)=N/C(=N\S(=O)(=O)c1ccc(C(F)(F)F)cc1)N1C[C@H](c2ccccc2)C(c2ccc(Cl)cc2)=N1		C57BL/6 mouse, liver	intravenous, 10 mg/kg		half-life	2.9 h
CCCCN1C(=O)c2cccc3c(NCCCCCCCCCCN4CCOCC4)ccc(c23)C1=O		methanol			absorption maximum	443 nm
CN1CCC[C@]1(C)/C=C/S(=O)(=O)NC(=O)Nc1c2c(cc3c1CC(O)C3)CCC2 (stereo partly shown)		human, plasma	oral, 100 mg twice daily of parent drug, day 14, metabolite of dosed drug		AUC(0-tau)	114 µg·h/mL
CCCCN1C(=O)c2cccc3c(NCCCCN4CCOCC4)ccc(c23)C1=O		ethylene glycol			absorption maximum	447 nm
O=C(O)CCCOc1ccc([18F])cc1-c1cc(-c2ccccc2C(F)(F)F)n(-c2ccccc2)n1	OLINDA/EXM from mouse data	human adults, muscle			absorbed dose	16.2 µGy/MBq
CCCCN1C(=O)c2cccc3c(NCCCN4CCOCC4)ccc(c23)C1=O		ethyl acetate			absorption maximum	429 nm
Cc1ccc(CN2C(=O)/C(=N\c3ccc(Cl)cc3Br)c3ccccc32)cc1		mouse, blood	150 mg/kg		MPV	5.3 ± 0.12 fL

Some of these lines once more:
Compound	test	test system	conditions	scale	endpoint	result
CC(C)[C@H](NC(=O)[C@H](Cc1c[nH]c2ccccc12)NC(=O)[C@H](CCCNC(=N)N)NC(=O)[C@H](CCCNC(=N)N)NC(=O)[C@@H](NC(=O)[C@@H](NC(=O)[C@H](CCCNC(=N)N)NC(=O)[C@@H](NC(=O)[C@@H](NC(=O)[C@H](CCCNC(=N)N)NC(=O)[C@H](CCCNC(=N)N)NC(=O)[C@@H](NC(=O)[C@H](Cc1c[nH]c2ccccc12)NC(=O)[C@H](CCCNC(=N)N)NC(=O)[C@H](CCCNC(=N)N)NC(=O)[C@@H](NC(=O)[C@H](CCCNC(=N)N)NC(=O)[C@H](CCCNC(=N)N)NC(=O)[C@@H](NC(=O)[C@H](Cc1c[nH]c2ccccc12)NC(=O)[C@H](CCCNC(=N)N)NC(=O)[C@@H](N)CCCNC(=N)N)C(C)C)C(C)C)C(C)C)C(C)C)C(C)C)C(C)C)C(C)C)C(=O)N[C@@H](CCCNC(=N)N)C(=O)N[C@@H](CCCNC(=N)N)C(=O)O	dipstick	CD-1 mice	intravenous, 15 mg/kg, 6-24 h		urinary protein	30 mg/dL
[123I]c1ccc2nc(-c3ccc(-n4ccnn4)nc3)cn2c1		male Wistar rat, bone	intravenous, 4 MBq, 3 h		tracer uptake	0.042 %ID/g
Cc1ccc(CN2C(=O)/C(=N\c3ccc(Cl)cc3Br)c3ccccc32)cc1		mouse, blood	150 mg/kg		MPV	5.3 ± 0.12 fL
CN1CCC[C@]1(C)/C=C/S(=O)(=O)NC(=O)Nc1c2c(cc3c1CC(O)C3)CCC2 (stereo partly shown)		human, plasma	oral, 100 mg twice daily of parent drug, day 14, metabolite of dosed drug		AUC(0-tau)	114 µg·h/mL
CCCCN1C(=O)c2cccc3c(NCCN4CCOCC4)ccc(c23)C1=O		DMF			absorption maximum	438 nm
COc1cccc(OC)c1-c1cc(C(=O)NC2(C(=O)O)C3CC4CC(C3)CC2C4)nn1-c1ccc(C(=O)N(C)CCCN(C)CCCN(C)C(=O)[C@H](CCCCNC(=O)[C@H](CC(C)C)NC(=O)C2OC2C(=O)O)NC(=O)CN2CCN(CC(=O)[O-])CCN(CC(=O)[O-])CCN(CC(=O)[O-])CC2)cc1C(C)C.[177Lu+3] (mixture of isomers)		mouse, HT-29 xenograft	168 h post injection, biodistribution	relative to: tumour over liver uptake	tumour-to-liver ratio	4.98
